Measurements of several laboratories.
A part holds a random share of what one study measured. Positions count from the first letter of the parent shown.

Study 1
Target: RING finger protein unkempt homolog, zinc fingers 1-6, GST-SBP tag (UNK, Homo sapiens, UniProt Q9C0B0, residues 30-357)
Chain of UniProt Q9C0B0 (30-357, looked up): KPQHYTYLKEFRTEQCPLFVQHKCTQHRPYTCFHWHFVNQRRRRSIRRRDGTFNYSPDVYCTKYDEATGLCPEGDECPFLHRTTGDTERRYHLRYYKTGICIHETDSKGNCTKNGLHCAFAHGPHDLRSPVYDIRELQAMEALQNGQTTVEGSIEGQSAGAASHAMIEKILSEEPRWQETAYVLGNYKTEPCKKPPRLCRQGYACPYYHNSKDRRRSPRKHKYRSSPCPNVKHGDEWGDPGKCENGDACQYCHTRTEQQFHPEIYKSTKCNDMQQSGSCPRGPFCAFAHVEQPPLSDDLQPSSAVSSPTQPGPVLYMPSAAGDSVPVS
Technique: RNA Bind-n-Seq
Form: RNA
Medium: in vitro
Concentration: not given
Setting: RNA with constant flanks, ends assumed
Reference: input RNA pool
Reading: higher = stronger binding
All sequences stand within: GGGAGUUCUACAGUCCGACGAUC … CAACAGAGGAUUGAGCAUCA
Oligonucleotide | bound/input enrichment [ratio]
UAUGAGACAGUGGUUGGCCCUGGGGAUGUUCUUUACAUCCCAAUGUACUGGUGGCACCAUACCGAGUCAUUACUAAAUGGGGGAAUUACCAUCACUGUGAACUUCUGGUAUAAGGGGGCU | 0.206
GGGCCGCAGACACGUAGGCUGGGGUGAGGAGUGUCUGCUGUCACCCUCUACUCUCCAGCUUCCGUCUUAUAAAUGUAGUGAUAGGAUUCCUUGUUGCUUGGUCCCCAAAGCCUUAUACUU | 0.18
UUGAAACAAGUUCUCGGCCAGAUGGUGAUUGAUGAAGAGCUGUUGGGAGAUGGACACAGCUACCGCCCUAGAGCUAUUCAUUCAUGGUUGACAAGAGCCAUGUACAGCCGCCGCUCCAAG | 0.116
AAGCACUCAAAGCAAAGAAAGAAGAUGGGAAUAAAGCAUUUAAGGAAGGAAAUUACAAACCCGCAUAUGAACUGUACACAGAAGCCCUGGGGAUAGACCCCAACAAUAUAAAAACAAAUG | 0.533
CACUCCCUCCCUCUAACAGCAGGCUGUGUGGGUUUCAAUUCCCAUCCUCCCCACCCUGGCCCGGUGUCGUCCACCCUGUAUCCUAUCAUGUGUCUGUGUGUGGGGGGGUUCUGUACUAAU | 0.24
UCUGCUGCGUGGACAAGGACACUCUCCGAUGCCACUUCCUCAGGCCCUUUUCCAAGGAAGACCCGAUGGAGUUGGCUUUUUAUGCAAAGGUCGUUGGAUUUCAGGGUGAGCACUGAGAGC | 0.136
GUCAGAUUUGAGAAUGCAGAUCUGAACGACACAUCACGGAAUCUAGAAUUUCAUGAACUGCACCGCACUGGAAAUGAGCCUCCUCUGCUGGUUAUGAUCGGCUACAGUGACGGAAUGCAG | 0.179
AGUCUGGCCGUACCACUGUGGCUGCUGGCAGCAUCUCUGCUCUGCCUUCUCAGCAAAUGUUAACCGAAUAAAAAUUUAAAAAUAAUUUAAAAAACACACAAAAAUGCGUCACACAGAAUA | 0.711

Study 2
Target: Sox-I, HMG box (Salpingoeca helianthica)
Technique: Spec-seq
Form: double-stranded DNA, one strand shown
Medium: in vitro
Concentration: not given
Setting: whole probe, mean of replicates
Reference: not given
Reading: lower = stronger binding
All sequences stand within: GAGTCGTCTCGTCAGCAC … CCGTAGAGCACTCAGGTC
Construct (chain): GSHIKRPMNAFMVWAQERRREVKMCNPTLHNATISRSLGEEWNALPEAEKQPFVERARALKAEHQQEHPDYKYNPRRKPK
Oligonucleotide | relative binding energy [ln ratio]
CATAATT | -0.34
CATTTTG | 0.875
GTGGGTT | 0.938
TTTAGTT | 0.124
CATTAAA | 0.402
TCTCGTT | 0.347
GGTAGTT | 0.764
ATAAGTT | -0.3

Mixed results
P1: PafA, mature enzyme, eGFP fusion (Elizabethkingia meningoseptica, UniProt Q9KJX5); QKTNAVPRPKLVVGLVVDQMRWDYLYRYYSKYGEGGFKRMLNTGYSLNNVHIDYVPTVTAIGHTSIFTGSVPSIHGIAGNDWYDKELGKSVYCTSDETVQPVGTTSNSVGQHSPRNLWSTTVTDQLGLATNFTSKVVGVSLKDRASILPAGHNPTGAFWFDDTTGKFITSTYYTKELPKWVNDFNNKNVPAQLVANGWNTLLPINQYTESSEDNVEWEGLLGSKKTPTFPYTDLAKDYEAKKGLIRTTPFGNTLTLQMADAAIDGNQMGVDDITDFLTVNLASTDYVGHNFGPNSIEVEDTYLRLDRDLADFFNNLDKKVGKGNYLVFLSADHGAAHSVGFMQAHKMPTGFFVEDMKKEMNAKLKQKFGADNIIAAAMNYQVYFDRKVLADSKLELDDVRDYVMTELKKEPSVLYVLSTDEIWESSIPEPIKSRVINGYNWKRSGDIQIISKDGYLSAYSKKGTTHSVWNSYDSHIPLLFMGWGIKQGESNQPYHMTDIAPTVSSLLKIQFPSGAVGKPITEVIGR
Molecule | tested on | test | system | setting | how to read | measurement | result
P1 Y54G | vanadate, free oxyanion | microfluidic competitive inhibition | in vitro, cell-free expressed | not given, derived from inhibition constants, unchanged parent 676 nM | lower = stronger binding | oxyanion analog dissociation constant | 875 nM
ECI1 (Homo sapiens, UniProt P42126) | CCDC90B (Homo sapiens, UniProt Q9GZT6) | cross-linking MS | cells | with: BSPNO |  | cross-linked residues | K260 to K124

Repeated from above (study 1):
Oligonucleotide | bound/input enrichment [ratio]
AAGCACUCAAAGCAAAGAAAGAAGAUGGGAAUAAAGCAUUUAAGGAAGGAAAUUACAAACCCGCAUAUGAACUGUACACAGAAGCCCUGGGGAUAGACCCCAACAAUAUAAAAACAAAUG | 0.533
